Results collected from several papers.
Lines come from different studies, so protocols differ. ± gives the spread as reported.

Compound	target or system	test	system	conditions	measurement	result
N#C[C@@H]1CC(F)(F)CN1C(=O)CNC(=O)c1ccnc2c(NC(=O)[C@@H](N)CCCCNC(=O)CCOCCOCCOCCOCCOCCOCCNC(=O)CN3CCN(CC(=O)[O-])CCN(CC(=O)[O-])CCN(CC(=O)[O-])CC3)cccc12.[177Lu+3]			mouse, U-87 MG tumour xenograft, kidneys	24 h	tissue uptake	2.68 ± 0.04 %ID/g
O=C(O)CCCOc1ccc([18F])cc1-c1cc(-c2ccccc2C(F)(F)F)n(-c2ccccc2)n1			mouse, muscle	intravenous, dose not given, 360 min	tissue uptake	2.64 ± 0.09 %ID/g
Cc1cc(C)n(CCN(CCN)CCCCCCNC(=O)[C@@H](N)Cc2c[nH]cn2)n1.[99Tc+].[C-]#[O+].[C-]#[O+].[C-]#[O+]			BALB/c nude mice, MCF7 xenograft, liver	intravenous, 4 h	tissue uptake	10.1 ± 1.67 %IA/g
O=C(NCC1OC2CCC=CCCC2O1)c1ccc([18F])nc1 (stereo not shown)			healthy female BALB/c nude mice, small intestine	intravenous, 7.4 MBq per mouse, 60 min	tissue uptake	6.1 ± 1.2 %ID/g
COc1cccc(OC)c1-c1cc(C(=O)NC2(C(=O)O)C3CC4CC(C3)CC2C4)nn1-c1ccc(C(=O)NCCNC(=O)[C@H](CCCCNC(=O)[C@H](CC(C)C)NC(=O)C2OC2C(=O)O)NC(=O)CN2CCN(CC(=O)[O-])CCN(CC(=O)[O-])CCN(CC(=O)[O-])CC2)cc1C(C)C.[177Lu+3] (mixture of isomers)			mouse HT-29 xenograft, small intestine	168 h post injection, biodistribution	tissue uptake	0.11 %ID/g
[123I]c1ccc2nc(-c3ccc(-n4ccnn4)nc3)cn2c1			Wistar rat, brain	intravenous, 24 h	tissue uptake	not detected
COc1cccc(OC)c1-c1cc(C(=O)NC2(C(=O)O)C3CC4CC(C3)CC2C4)nn1-c1ccc(C(=O)N(C)CCCN(C)C(=O)[C@H](CCCCNC(=O)[C@H](CC(C)C)NC(=O)C2OC2C(=O)O)NC(=O)CN2CCN(CC(=O)[O-])CCN(CC(=O)[O-])CCN(CC(=O)[O-])CC2)cc1C(C)C.[177Lu+3] (mixture of isomers)			mouse, HT-29 xenograft, muscle	72 h post injection	tissue uptake	0.05 %ID/g
CCCC[C@H](NC(=O)CNC(=O)CNC(=O)[C@H](CCCCNC(=O)[C@H](CC(=O)O)NC(=O)C(C)c1ccc(CC(C)C)cc1)NC(=O)CN1CCN(CC(=O)O)CCN(CC(=O)O)CCN(CC(=O)O)CC1)C(=O)N[C@H]1CC(=O)NCCCC[C@@H](C(N)=O)NC(=O)[C@H](Cc2c[nH]c3ccccc23)NC(=O)[C@H](CCCNC(=N)N)NC(=O)[C@@H](Cc2ccccc2)NC(=O)[C@H](Cc2c[nH]cn2)NC1=O (stereo partly shown) [lutetium-177 labelled]			C57 mice, tumour-bearing, tumor	intravenous, 0.037 MBq, 0.5 h	tissue uptake	19.5 ± 3.12 %ID/g
N#C[C@@H]1CC(F)(F)CN1C(=O)CNC(=O)c1ccnc2c(NC(=O)[C@H](CCCCNC(=O)CCOCCOCCOCCOCCOCCOCCNC(=O)CN3CCN(CC(=O)[O-])CCN(CC(=O)[O-])CCN(CC(=O)[O-])CC3)NC(=O)CCCc3ccc(I)cc3)cccc12.[177Lu+3]			mouse, U-87 MG tumour xenograft, kidneys	1 h	tissue uptake	6.59 ± 3.94 %ID/g
C[n+]1ccc(/C=N/NC(=O)c2ccc3ccc4ccc(C(=O)N/N=C/c5cc[n+](C)cc5)nc4c3n2)cc1	hp2 hairpin duplex DNA	FRET melting		1 µM, added: ds26 10 µM	ΔTm	0.2 ± 0.3 °C
O=S(=O)(c1cccc(-c2ccc3ncnc(Nc4ccc(OCc5cccc(F)c5)c(Cl)c4)c3c2)c1)N1CCOCC1	Leishmania major	intracellular amastigote growth, luciferase	RAW264.7 macrophages		EC50	> 15 µM
COc1cccc(OC)c1-c1cc(C(=O)NC2(C(=O)O)C3CC4CC(C3)CC2C4)nn1-c1ccc(C(=O)N(C)CCCN(C)CCCN(C)C(=O)[C@H](CCCCNC(=O)[C@H](CC(C)C)NC(=O)C2OC2C(=O)O)NC(=O)CN2CCN(CC(=O)[O-])CCN(CC(=O)[O-])CCN(CC(=O)[O-])CC2)cc1C(C)C.[177Lu+3] (mixture of isomers)			mouse HT-29 xenograft, small intestine	24 h post injection, biodistribution	tissue uptake	0.58 %ID/g
C[n+]1ccc(/C=N/NC(=O)c2cc(C(=O)N/N=C/c3cc[n+](C)cc3)ncn2)cc1	hp2 hairpin duplex DNA	FRET melting		1 µM, added: ds26 10 µM	ΔTm	0 ± 0.3 °C

Repeated from above:
Compound	target or system	test	system	conditions	measurement	result
CCCC[C@H](NC(=O)CNC(=O)CNC(=O)[C@H](CCCCNC(=O)[C@H](CC(=O)O)NC(=O)C(C)c1ccc(CC(C)C)cc1)NC(=O)CN1CCN(CC(=O)O)CCN(CC(=O)O)CCN(CC(=O)O)CC1)C(=O)N[C@H]1CC(=O)NCCCC[C@@H](C(N)=O)NC(=O)[C@H](Cc2c[nH]c3ccccc23)NC(=O)[C@H](CCCNC(=N)N)NC(=O)[C@@H](Cc2ccccc2)NC(=O)[C@H](Cc2c[nH]cn2)NC1=O (stereo partly shown) [lutetium-177 labelled]			C57 mice, tumour-bearing, tumor	intravenous, 0.037 MBq, 0.5 h	tissue uptake	19.5 ± 3.12 %ID/g
